Published values of several laboratories.
Parts stem from different laboratories: compare values within a part only.

Block 1 — method: aptamer microarray, sandwich; molecule type: DNA with 2'F-ANA; matrix: in vitro; tested at: 200 nM; with: Cy3 exosite-II aptamer, 400 nM; reading: higher = stronger binding; sequence: GGTTGGTGTGGTTGG
Target: Prothrombin, mature alpha-thrombin (F2, Homo sapiens, UniProt P00734)
Setting: whole 15-mer aptamer, many near background
Modification	mean fluorescence intensity
2'F-ANA at 3 4 5 7 10 11	51.7 a.u.
2'F-ANA at 1 2 4 5 6 7 11 13 14	47.9 a.u.
2'F-ANA at 1 3 5 7 8 10 12 13 14	46.1 a.u.
2'F-ANA at 3 4 5 6 7 10 13 14	44.5 a.u.
2'F-ANA at 2 3 10 12 13 14	276 a.u.
2'F-ANA at 2 3 4 5 6 7 10 11 12 13 15	47.9 a.u.
2'F-ANA at 3 4 5 6 8 10 11 14 15	61.5 a.u.
2'F-ANA at 1 3 4 6 9 12	353 a.u.
2'F-ANA at 2 5 8 9 10 11 12 15	77.7 a.u.
2'F-ANA at 3 4 8 9 14 15	286 a.u.
2'F-ANA at 5 9 10 12	54.8 a.u.
2'F-ANA at 3 4 7 12	985 a.u.
2'F-ANA at 4 6 11 13	165 a.u.
2'F-ANA at 1 5 6 9 10 11 13 14 15	49.2 a.u.
2'F-ANA at 2 4 8 9 10 11 12 14	61.8 a.u.
2'F-ANA at 2 8 11 13 15	354 a.u.
2'F-ANA at 1 4 6 7 10 14 15	47.2 a.u.
2'F-ANA at 2 4 5 6 9 10 12 13 14 15	48 a.u.

Block 2 — method: protein binding microarray; molecule type: double-stranded DNA, one strand shown; matrix: in vitro; tested at: not given; reference: not given; reading: higher = stronger binding
Target: Histone acetyltransferase KAT6A, winged helix 2, GST fusion (KAT6A, Homo sapiens, UniProt Q92794, residues 85-181)
Setting: 8-mer, flanks averaged, mean of 2 arrays, mostly near background
Target sequence (chain): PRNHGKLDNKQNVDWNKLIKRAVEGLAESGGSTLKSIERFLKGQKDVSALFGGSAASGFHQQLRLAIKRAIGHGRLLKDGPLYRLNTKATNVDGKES
Sequence	E-score
AAAAATGG	0.0299
ACACCGTC	0.0261
CTTCTTTA	-0.0856
CCGCACCG	-0.00313
CGTAGAAC	0.000105
CGGGCGTC	0.128
AAAATAAT	0.181
GCCACTCA	0.0441
ACCAAGAG	0.0105
AGAATTGG	-0.0509
AGAAATTA	0.162
AGAATGAA	0.126
CGACCCTC	0.16
AGAGTCAA	-0.171
ATAATAAC	-0.139
GCACGCCA	0.0213
ATCCAATA	0.0745
GGAATTTA	0.0696
ATTCTGTA	-0.0436
GTTGGATA	0.0505
GCTGTCCC	0.191
GTGATAAC	-0.166
ACGTTTAG	-0.233
AATGAGGC	0.0486
CAATTCCC	0.103

Block 3 — method: RNA Bind-n-Seq; molecule type: RNA; matrix: in vitro; tested at: 365 nM; reference: no-protein control; reading: higher = stronger binding
Target: RNA binding protein fox-1 homolog 2, RRM domain, GST-SBP tag (RBFOX2, Homo sapiens, UniProt O43251-10, residues 100-194)
Setting: natural RNA segment, single round, ends assumed
Residues (chain): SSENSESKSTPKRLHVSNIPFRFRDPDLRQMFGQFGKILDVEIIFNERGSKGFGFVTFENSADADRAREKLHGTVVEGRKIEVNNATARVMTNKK
Sequence	RBNS enrichment (R)
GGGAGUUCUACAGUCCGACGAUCCCUCCCCCCGGCUUCGUGCCCUUUGGAUGACACAAAAACUUCAUACACCAGUGACUGUCGGGCAGGGCAAGCGCCCUGGUCACAGACCCCAGAAACAUGACCUCCCACUGUGGAAUUCUCGGGUGCCAA	0.289
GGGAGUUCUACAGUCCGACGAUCACCCCUUCACAGACUGACAGAAUGGUUUUGUUUUGUUUUGUUUUGUUUUGUUUUGUUUUUGAGAUGGACUCUAGCUCUGUCACCCAGGCUGGAGUGCAGUGGUGCGAUCUUGGAAUUCUCGGGUGCCAA	1.98
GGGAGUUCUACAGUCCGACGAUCACUAAAUGAAAGGAAGGGUAGUUUUAAUGUUGAAGCACCGUGCUGGGCACUGGAGCUACCCAGAGGAAUGCACAACGCUCCCCUCAAGGAGCUCACAGUCUAGCCUACUCUGGAAUUCUCGGGUGCCAA	0.269
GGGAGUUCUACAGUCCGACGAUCAGAGUAGAUCAUUUUAAUAAGAAUUAUUUAAUCCCAUACAAGUUUUCUUUGCAGGAGCUAGCCCAAAGGCAUCAAAUUUAAUAUGAUAAAAUGAAUUGCUAUACCUUAGAUGGAAUUCUCGGGUGCCAA	0.832
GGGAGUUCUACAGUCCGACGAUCACGUUAUUAUAUUGUCGAAUUCCUACUGACAACAUUAUAACUGUAUGGGAGCUUAACUUUAUAAGGAAAUGUAUUUUGACACUGGUAUCUUAUUAAAGUAUUCUGAUCCUUGGAAUUCUCGGGUGCCAA	0.707
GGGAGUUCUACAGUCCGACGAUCUAGCCGGCUCCUGAAAGCAGGCGACAUCAGAGUGGUAACAGUCAGUAGGCUGCAGUAGGUGUCCUACCUCGAGGCCCUCAGAUGGAGGUAACACAUUAGGAUUGUGGGACUGGAAUUCUCGGGUGCCAA	0.234
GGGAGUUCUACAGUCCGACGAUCGACUCCACCUUCCCAGACACCUACUUUAAGGACCUGUGGAAACUGGGUGAUCCAAUUAUAGGGCUGGGGCAACCCUGCUUUGGCCACCCUCAUUUACAAACUUAGGUUGGUGGAAUUCUCGGGUGCCAA	0.323
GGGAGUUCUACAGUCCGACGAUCAAACUUUGUAUUAAUGUGUUAAGUGCAGGAGACAUUGGUAUUCUGGGCACCUUCCUAAUAUGCUUUACAAUCUGCACUUUAACUGACUUAAGUGGCAUUAAACAUUUGAGUGGAAUUCUCGGGUGCCAA	0.407
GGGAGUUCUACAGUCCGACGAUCGAUCCCGGGAGCCUUGCCGCACUGCCUUGUGGGUGGCUUGGCGCUCGUGAUUGCUUCCUGUGAACGCCUCCCAAGGACGAGCCCAGUGUAGUUGUGUGGCGUGAACUCUGUGGAAUUCUCGGGUGCCAA	1.41
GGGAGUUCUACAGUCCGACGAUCUUAAAGGCUUUAAAACAUUAGGGAGGCAGUCUAGGGUGAUAACGAACAGGGGUUAAGUAUUAAAUACACGAAGUUACAUUUUUGUUCAUGUUUCAUUGUCCAGAAAGCAGUGGAAUUCUCGGGUGCCAA	0.456
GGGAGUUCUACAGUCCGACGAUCCCCGUCUUGUGGGGGAGUUUUCUUGCCUAAGAUUUAAUGCAGUUCUCUCUACCCAGUGGGCGCUGCUGUUAAGGGGCCAUCUGCUGAAAACGUUUCCCCAGGCCCUGCUGUGGAAUUCUCGGGUGCCAA	0.222
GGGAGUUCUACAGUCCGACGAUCUAAUUGUAGAGAUUUGAACCCGAUCAAAGAAAUUUUGAGUUCUCUCAAAUACCAUAAAAGUGUUUGCUACAAUAAAUAAAAUUCUUGUGACUUUACUACCAAGUCAUCUCUGGAAUUCUCGGGUGCCAA	0.471

Block 4 — method: RNA Bind-n-Seq; molecule type: RNA; matrix: in vitro; tested at: not given; reference: input RNA pool; reading: higher = stronger binding
Target: RING finger protein unkempt homolog, zinc fingers 1-6, GST-SBP tag (UNK, Homo sapiens, UniProt Q9C0B0, residues 30-357)
Setting: RNA with constant flanks, human-mouse chimeric sites, ends assumed
Construct (chain): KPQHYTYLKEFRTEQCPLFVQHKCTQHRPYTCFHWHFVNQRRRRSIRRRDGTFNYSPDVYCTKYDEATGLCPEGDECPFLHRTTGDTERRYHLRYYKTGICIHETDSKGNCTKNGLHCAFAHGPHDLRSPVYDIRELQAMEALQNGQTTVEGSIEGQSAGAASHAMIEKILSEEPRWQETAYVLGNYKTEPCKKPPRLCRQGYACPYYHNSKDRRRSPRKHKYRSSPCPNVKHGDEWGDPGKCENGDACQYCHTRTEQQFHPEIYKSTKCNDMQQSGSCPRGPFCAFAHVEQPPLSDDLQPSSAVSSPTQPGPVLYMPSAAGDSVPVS
Sequence	bound/input enrichment [ratio]
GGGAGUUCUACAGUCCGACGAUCGUGUCCUGCUUUCAACUUAAAUCACUGAGGCAUCUCUACUGUUCUGUGAGCAUCAGGAUUUUAGUGCUGUGUCACCACAGAUGAGAACAGAAGCAGCCUUUCUGUGGAGGGUGGGAAUGACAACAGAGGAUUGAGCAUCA	0.153
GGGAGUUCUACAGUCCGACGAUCUAAGUCCUGUGCCAGCACUUCGCUCAUAAAGUUUUAAAUUCUGGACCAAUAGUGUUUGUUUCCUGAUUAUUGUAUCCAAUACUUUAUCUAGUAUGUAACUCACUCUUCUGGAUAAAUAAACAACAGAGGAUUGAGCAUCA	2.59
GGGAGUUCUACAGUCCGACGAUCAGAAUCUGUGACUGGCUUUGCUUGAUUGGUCAUUGAUAGCUUAACAAACAUGGAGAUAAGAUUAGAAAUCUUGACAUCAACAGGUAUUAAGCAGAAAAAACCAUGGCCACGUGUCUCCUGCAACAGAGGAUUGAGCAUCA	0.135
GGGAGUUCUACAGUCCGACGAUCGUGCCCUUCUCGCUGCUGCGGAGCCCGAGCUGGGAACCAUUCCGGGACUGGUACCCUGCACACAGCCGCCUCUUCGAUCAAGCUUUCGGGGUGCCCCGGCUGCCGGAGGAGUGGUCGCAGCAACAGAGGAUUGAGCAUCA	0.0522
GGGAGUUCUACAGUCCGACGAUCGAAACUAUUCCUAAAGAGGAGAGAGCUGAAAAGGAAGCUCGGAGAUCGUCUCUCGAGAAACAUAGAAAAGAAAAGCCUUUUAAAACCGGGAGAGGCAGAAUUUCCACUCCUGAAAGAAAACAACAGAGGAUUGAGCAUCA	0.685
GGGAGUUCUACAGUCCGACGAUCUUCAAAGGCUGUGUUAUUUCAUAAAUAUCAUAAGUAACUCUGGGGGAGGGAAAUUCUGUUCUUUUGUUUAAUUUUCCCCCAAAUGAAGCCAAAGUGUGUGUUGAAGAACUGAGAAAAAAUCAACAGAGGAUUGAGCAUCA	0.216
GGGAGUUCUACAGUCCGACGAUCGUGCCCUUCUCGCUGCUGCGGAGCCCGAGCUGGGAACCAUUCCGGGACUGGUACCCUGCACACAGCCGCCUCUUCGACCAGGCCUUCGGGGUGCCCCGGUUGCCCGAUGAGUGGUCGCAGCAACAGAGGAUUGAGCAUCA	0.0634
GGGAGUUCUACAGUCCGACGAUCUAAAUUAGGGCUGCCGUUUUCUGUUUCUCCCUGGGCUGCGGAAAGCCAGAAGAUUUUAUCUAGCUUAUACAAGGCUGCUGGUGUUCCCUCCCUCCCGCCCUCUCUCUGUUUUUGGCUGCACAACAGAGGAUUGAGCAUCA	1.04
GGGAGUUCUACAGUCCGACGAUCGUUCGGCUCUGGGAUCAUGCCACAAUGACAGAAGUGAAAUCUCUGAAUUUUAAUAUGUCUGUUAGCAGUAUGGAAUAUAUUCCUGAAGGAGAGAUUUUGGUUAUUACUUAUGGACGAUCUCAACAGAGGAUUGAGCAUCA	1.24
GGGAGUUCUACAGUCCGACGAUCGCCACCAGAUCCCAGAAACAUGACCCUUGCAGCCUAUAAGGAGAAGAUGAAGGAGCUCCCGCUGGUGUCCUUGUUCUGCUCCUGCUUCCUGGCCGAUCCCCUGAAUAAGUCGUCCUACAACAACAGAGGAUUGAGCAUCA	0.17
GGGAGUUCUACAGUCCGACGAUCACCAUUUUCGCGGUUCAGGCUUUGUGUGUAGUUCACUUACGGUAUUAAAUUAUUAUUCUGCUUAGCUUAUAAUAAGGAUAAUUGCAUGAUUUAAGUAUACUGAAUGUUGUUAUUGUUCUUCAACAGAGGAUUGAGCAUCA	1.68

For quick reference, copied from above (block 2):
Sequence	E-score
AGAAATTA	0.162
AGAATGAA	0.126
CGACCCTC	0.16
AGAGTCAA	-0.171
ATAATAAC	-0.139
GCACGCCA	0.0213
